Published values from different studies.
Each numbered part is a random draw from the data of one study; scales do not carry over between parts.
Chain of UniProt Q16539 (whole entry, looked up): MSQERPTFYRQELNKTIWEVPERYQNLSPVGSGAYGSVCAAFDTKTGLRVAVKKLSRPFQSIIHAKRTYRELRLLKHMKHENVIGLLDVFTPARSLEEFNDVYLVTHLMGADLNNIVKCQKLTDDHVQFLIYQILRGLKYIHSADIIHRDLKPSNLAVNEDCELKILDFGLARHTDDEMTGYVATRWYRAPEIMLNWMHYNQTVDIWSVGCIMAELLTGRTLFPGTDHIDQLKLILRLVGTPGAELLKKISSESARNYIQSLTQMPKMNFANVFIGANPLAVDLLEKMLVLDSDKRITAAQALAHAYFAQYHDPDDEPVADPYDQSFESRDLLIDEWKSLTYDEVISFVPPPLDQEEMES
Chain of UniProt P78362 (whole entry, looked up): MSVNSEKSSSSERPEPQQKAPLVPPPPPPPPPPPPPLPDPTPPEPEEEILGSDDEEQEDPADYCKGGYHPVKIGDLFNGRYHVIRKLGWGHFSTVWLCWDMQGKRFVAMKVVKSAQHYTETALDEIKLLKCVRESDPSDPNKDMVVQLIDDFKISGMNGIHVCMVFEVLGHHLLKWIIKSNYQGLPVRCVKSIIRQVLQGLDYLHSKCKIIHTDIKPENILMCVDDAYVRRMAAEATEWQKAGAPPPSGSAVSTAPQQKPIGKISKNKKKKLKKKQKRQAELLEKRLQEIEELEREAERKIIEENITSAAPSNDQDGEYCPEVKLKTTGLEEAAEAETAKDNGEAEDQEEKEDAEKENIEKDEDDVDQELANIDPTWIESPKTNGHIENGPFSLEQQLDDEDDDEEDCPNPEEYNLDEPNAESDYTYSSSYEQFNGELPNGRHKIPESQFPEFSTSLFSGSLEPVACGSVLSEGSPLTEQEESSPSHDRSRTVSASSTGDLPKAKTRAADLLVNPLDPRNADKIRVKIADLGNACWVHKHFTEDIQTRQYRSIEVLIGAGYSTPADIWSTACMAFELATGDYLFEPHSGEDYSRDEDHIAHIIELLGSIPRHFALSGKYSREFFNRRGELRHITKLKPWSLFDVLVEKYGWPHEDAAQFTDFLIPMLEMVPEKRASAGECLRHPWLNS
Chain of UniProt Q9H0K1 (whole entry, looked up): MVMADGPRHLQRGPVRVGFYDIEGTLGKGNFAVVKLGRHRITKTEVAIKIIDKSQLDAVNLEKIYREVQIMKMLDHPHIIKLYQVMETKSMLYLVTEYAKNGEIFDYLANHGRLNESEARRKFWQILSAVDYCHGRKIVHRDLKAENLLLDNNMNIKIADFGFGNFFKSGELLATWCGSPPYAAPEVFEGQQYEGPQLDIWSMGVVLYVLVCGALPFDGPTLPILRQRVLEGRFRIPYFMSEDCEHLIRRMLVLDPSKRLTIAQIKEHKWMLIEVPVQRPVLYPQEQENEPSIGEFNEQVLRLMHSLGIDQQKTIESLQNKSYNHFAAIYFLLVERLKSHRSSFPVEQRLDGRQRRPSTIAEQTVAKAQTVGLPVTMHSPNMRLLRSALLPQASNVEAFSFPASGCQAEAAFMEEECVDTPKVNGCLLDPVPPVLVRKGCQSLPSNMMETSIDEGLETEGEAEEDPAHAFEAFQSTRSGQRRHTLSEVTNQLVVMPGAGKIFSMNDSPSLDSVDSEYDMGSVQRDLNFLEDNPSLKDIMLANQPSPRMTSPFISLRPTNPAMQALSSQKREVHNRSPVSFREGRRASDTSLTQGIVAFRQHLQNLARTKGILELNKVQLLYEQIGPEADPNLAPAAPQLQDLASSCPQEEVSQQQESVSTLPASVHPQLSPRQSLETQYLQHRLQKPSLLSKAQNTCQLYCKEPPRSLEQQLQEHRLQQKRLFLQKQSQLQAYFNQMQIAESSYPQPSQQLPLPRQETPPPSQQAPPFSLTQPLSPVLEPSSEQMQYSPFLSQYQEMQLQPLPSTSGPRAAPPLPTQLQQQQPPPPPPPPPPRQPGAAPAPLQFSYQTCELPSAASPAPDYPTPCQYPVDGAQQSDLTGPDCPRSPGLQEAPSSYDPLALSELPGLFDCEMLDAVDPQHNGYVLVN
Chain of UniProt Q9HAZ1 (whole entry, looked up): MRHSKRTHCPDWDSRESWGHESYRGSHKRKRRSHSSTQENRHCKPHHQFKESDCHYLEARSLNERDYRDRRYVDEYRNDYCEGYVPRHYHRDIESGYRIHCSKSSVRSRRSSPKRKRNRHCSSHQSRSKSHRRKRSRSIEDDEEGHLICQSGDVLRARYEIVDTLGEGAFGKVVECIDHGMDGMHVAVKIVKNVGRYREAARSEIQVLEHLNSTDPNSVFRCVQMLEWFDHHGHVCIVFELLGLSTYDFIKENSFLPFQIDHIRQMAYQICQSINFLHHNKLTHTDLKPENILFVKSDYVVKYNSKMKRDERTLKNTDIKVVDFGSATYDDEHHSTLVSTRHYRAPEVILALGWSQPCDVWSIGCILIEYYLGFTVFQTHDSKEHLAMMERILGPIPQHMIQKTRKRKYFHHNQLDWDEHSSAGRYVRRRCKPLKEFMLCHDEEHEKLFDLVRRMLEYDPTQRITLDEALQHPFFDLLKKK
Chain of UniProt Q6P2M8 (whole entry, looked up): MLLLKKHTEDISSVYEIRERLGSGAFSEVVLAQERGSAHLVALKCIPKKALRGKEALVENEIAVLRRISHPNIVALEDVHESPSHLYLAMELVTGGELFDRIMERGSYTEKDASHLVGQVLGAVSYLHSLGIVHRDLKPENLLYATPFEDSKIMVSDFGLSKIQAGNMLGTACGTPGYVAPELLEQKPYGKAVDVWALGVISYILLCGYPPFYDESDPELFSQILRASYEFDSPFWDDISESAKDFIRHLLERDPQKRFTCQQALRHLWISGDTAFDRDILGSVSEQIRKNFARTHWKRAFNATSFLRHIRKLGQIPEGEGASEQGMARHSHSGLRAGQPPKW
Chain of UniProt P06493 (whole entry, looked up): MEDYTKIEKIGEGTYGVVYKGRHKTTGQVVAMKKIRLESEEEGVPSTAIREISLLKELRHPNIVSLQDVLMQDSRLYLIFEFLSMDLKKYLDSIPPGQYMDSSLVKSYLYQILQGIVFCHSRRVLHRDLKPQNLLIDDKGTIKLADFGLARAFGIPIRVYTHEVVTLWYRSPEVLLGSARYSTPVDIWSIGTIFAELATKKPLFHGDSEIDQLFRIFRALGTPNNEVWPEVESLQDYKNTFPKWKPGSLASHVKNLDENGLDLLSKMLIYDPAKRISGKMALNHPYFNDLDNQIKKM
Chain of UniProt Q9UPZ9 (whole entry, looked up): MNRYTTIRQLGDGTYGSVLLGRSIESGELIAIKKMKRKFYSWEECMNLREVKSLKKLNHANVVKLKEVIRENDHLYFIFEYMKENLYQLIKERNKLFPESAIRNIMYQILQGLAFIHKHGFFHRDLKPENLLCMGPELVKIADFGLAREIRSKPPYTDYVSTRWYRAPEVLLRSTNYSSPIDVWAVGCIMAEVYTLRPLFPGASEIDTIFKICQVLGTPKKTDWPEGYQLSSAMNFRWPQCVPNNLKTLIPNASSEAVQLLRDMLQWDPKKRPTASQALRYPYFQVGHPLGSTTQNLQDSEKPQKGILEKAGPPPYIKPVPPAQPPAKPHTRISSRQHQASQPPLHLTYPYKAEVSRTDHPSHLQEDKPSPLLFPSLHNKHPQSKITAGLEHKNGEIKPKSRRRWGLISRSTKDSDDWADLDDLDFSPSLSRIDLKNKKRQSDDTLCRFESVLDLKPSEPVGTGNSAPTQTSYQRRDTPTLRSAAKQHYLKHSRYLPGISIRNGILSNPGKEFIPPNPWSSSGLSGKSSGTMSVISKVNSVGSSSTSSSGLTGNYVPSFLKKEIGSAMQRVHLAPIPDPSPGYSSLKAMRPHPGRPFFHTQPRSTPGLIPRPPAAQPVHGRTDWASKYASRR
Chain of UniProt P31751 (whole entry, looked up): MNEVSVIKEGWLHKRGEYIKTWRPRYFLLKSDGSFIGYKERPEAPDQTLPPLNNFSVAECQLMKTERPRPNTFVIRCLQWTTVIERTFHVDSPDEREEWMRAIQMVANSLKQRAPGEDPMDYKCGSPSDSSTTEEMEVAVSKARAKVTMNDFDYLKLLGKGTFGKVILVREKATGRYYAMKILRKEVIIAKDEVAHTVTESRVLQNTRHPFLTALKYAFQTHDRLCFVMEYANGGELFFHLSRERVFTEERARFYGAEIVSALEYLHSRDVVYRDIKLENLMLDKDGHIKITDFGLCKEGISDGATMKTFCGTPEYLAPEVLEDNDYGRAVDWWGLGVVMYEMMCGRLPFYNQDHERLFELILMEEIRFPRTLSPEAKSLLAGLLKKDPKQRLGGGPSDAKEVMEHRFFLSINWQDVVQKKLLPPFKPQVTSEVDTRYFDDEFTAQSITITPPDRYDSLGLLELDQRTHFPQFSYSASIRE
Chain of UniProt Q16566 (whole entry, looked up): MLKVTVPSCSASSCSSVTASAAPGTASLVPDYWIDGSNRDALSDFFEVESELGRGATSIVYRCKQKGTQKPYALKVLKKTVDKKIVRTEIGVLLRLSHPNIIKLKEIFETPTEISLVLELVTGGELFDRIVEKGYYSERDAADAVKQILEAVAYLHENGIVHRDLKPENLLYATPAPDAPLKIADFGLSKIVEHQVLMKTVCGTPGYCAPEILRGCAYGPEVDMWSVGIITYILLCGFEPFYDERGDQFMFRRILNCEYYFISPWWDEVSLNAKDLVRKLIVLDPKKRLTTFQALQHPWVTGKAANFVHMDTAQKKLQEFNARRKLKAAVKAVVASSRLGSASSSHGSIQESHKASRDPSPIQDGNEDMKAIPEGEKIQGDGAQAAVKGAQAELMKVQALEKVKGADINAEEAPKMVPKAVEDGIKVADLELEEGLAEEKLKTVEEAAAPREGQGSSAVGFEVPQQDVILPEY

Study 1
Structure (SMILES): Cn1nc2c3c(cccc31)C(=O)c1ccccc1-2
Effect on: enzyme activity
Mode: inhibitor
Tested at: 0.5 µM
Baseline: control
| target | remaining activity |
| --- | --- |
| PNCK (Homo sapiens, UniProt Q6P2M8) | 101% |
| TXK (Homo sapiens, UniProt P42681) | 92% |
| Cyclin-dependent kinase 1, with cyclin A (CDK1, Homo sapiens, UniProt P06493) | 88% |
| CAMK4 (Homo sapiens, UniProt Q16566) | 100% |
| MAP2K1 (Homo sapiens, UniProt Q02750) | 86.3% |
| DDR2 (Homo sapiens, UniProt Q16832) | 95.1% |
| TLK2 (Homo sapiens, UniProt Q86UE8) | 101% |
| MAPK14 (Homo sapiens, UniProt Q16539) | 93.6% |
| PAK3 (Homo sapiens, UniProt O75914) | 101% |
| AKT2 (Homo sapiens, UniProt P31751) | 98.9% |
| MAPK11 (Homo sapiens, UniProt Q15759) | 109% |
| KDR (Homo sapiens, UniProt P35968) | 101% |
| MARK2 (Homo sapiens, UniProt Q7KZI7) | 94.1% |
| CLK3 (Homo sapiens, UniProt P49761) | 98.5% |
| PLK3 (Homo sapiens, UniProt Q9H4B4) | 96.2% |

Study 2
SMILES: CO[C@@H]1[C@H](N(C)C(=O)c2ccccc2)C[C@H]2O[C@]1(C)n1c3ccccc3c3c4c(c5c6ccccc6n2c5c31)C(=O)NC4
Effect on: enzyme activity
Mode: inhibitor
Tested at: 1 µM
| target | inhibition [%] |
| --- | --- |
| PRKCH (Homo sapiens, UniProt P24723) | 90 |
| ZAP70 (Homo sapiens, UniProt P43403) | 81 |
| FER (Homo sapiens, UniProt P16591) | 1 |
| Tyrosine-protein kinase ABL1, phosphorylated (ABL1, Homo sapiens, UniProt P00519, F317L) | 12 |
| STK24 (Homo sapiens, UniProt Q9Y6E0) | 12 |
| PRKG1 (Homo sapiens, UniProt Q13976) | 63 |
| SRPK2 (Homo sapiens, UniProt P78362) | 1 |
| CDKL2 (Homo sapiens, UniProt Q92772) | 4 |
| MINK1 (Homo sapiens, UniProt Q8N4C8) | 77 |

Study 3
Compound: CCS(=O)(=O)c1cc2cc(C[C@@](O)(CC(C)(C)c3ccc(F)cc3C(N)=O)C(F)(F)F)[nH]c2cn1
Effect on: cell-free assay
Method: competition with immobilised ligand
Tested at: 1 µM
| target | remaining binding |
| --- | --- |
| PIK3CA (Homo sapiens, UniProt P42336, E545K) | 79% |
| Ribosomal protein S6 kinase alpha-2, N-terminal kinase domain (RPS6KA2, Homo sapiens, UniProt Q15349) | 80% |
| SIK2 (Homo sapiens, UniProt Q9H0K1) | 100% |
| CLK4 (Homo sapiens, UniProt Q9HAZ1) | 100% |
| EPHB1 (Homo sapiens, UniProt P54762) | 92% |
| CILK1 (Homo sapiens, UniProt Q9UPZ9) | 97% |
| MAPK14 (Homo sapiens, UniProt Q16539) | 97% |
| EGFR (Homo sapiens, UniProt P00533, L858R/T790M) | 83% |
| MET (Homo sapiens, UniProt P08581, Y1235D) | 100% |
| SRPK2 (Homo sapiens, UniProt P78362) | 70% |

Study 4
Host: mouse
Medium: microsomes or S9
Tested at: 2 µM
Time: 0.5 h
| Structure (SMILES) | remaining compound |
| --- | --- |
| O=C(Cn1ncc2ccccc2c1=O)c1ccc(Cl)cc1 | 1.93% |
| CCc1ccccc1NC(=O)Cn1nc2n(C)c(=O)c3ccc(C(=O)NC(C)CC)cc3n2c1=O (stereo not drawn) | 59.4% |
| O=C(CC1c2ccccc2Oc2ccccc21)N1CCCC1c1nc(-c2ccncc2)n[nH]1 (stereo not drawn) | 41.4% |
| Cc1cc(-c2[nH]c3[nH]c(=O)[nH]c(=O)c3c2-c2cc(C)sc2C)c(C)s1 | 22.6% |
| Cc1c(-c2cc[nH]n2)c2c(C)cccn2c1-c1ccccc1 | 5.34% |
| Oc1cccc(-c2cn(Cc3ccc4sccc4c3)nn2)c1 | 6.62% |
| COCCNS(=O)(=O)c1cc(C(=O)O)cc(-c2cccc(F)c2F)c1 | 92.2% |
| CC1(C)CC(S(=O)(=O)CC2(C)CC(C3CCCCC3)=NO2)=NO1 (stereo not drawn) | 25.3% |
| COCSc1c(C(O)(CF)c2cnn(C)c2SCOC)cnn1C | 27.4% |
| Cc1cc(N2C(=O)CC(SCCN)C2=O)no1 (stereo not drawn) | 28.7% |
| Cc1sc(NC(=O)NCC(CC(C)C)N(C)C)c(C#N)c1C (stereo not drawn) | 40.7% |

A few entries again (study 3):
| target | remaining binding |
| --- | --- |
| Ribosomal protein S6 kinase alpha-2, N-terminal kinase domain (RPS6KA2, Homo sapiens, UniProt Q15349) | 80% |
| SIK2 (Homo sapiens, UniProt Q9H0K1) | 100% |
| CLK4 (Homo sapiens, UniProt Q9HAZ1) | 100% |
| EPHB1 (Homo sapiens, UniProt P54762) | 92% |
| CILK1 (Homo sapiens, UniProt Q9UPZ9) | 97% |
| MAPK14 (Homo sapiens, UniProt Q16539) | 97% |
| EGFR (Homo sapiens, UniProt P00533, L858R/T790M) | 83% |
